Assay results pooled from the literature.
Lines come from different studies, so protocols differ. “And” joins repeats or separate records; there may be more than shown. ± gives the spread as reported.
HSP90AA1 N-terminal domain: Heat shock protein HSP 90-alpha, N-terminal domain (HSP90AA1, Homo sapiens, UniProt P07900)
CASP1: Caspase-1 (CASP1, Homo sapiens, UniProt P29466)
UniProt P29466, sequence (whole entry, looked up): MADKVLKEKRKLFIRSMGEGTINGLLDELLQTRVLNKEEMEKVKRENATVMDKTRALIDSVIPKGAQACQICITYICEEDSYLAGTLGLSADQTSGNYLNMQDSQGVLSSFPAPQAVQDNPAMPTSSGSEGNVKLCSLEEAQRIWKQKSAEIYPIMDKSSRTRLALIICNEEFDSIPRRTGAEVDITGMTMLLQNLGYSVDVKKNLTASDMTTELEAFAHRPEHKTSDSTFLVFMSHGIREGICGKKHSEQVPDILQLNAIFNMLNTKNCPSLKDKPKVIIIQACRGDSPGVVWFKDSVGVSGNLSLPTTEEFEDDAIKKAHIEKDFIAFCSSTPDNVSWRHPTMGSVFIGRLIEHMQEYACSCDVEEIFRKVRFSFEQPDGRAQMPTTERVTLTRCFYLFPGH
Rhomboid protease AarA: Rhomboid protease AarA (Providencia stuartii, UniProt P46116)
UniProt P46116, sequence (whole entry, looked up): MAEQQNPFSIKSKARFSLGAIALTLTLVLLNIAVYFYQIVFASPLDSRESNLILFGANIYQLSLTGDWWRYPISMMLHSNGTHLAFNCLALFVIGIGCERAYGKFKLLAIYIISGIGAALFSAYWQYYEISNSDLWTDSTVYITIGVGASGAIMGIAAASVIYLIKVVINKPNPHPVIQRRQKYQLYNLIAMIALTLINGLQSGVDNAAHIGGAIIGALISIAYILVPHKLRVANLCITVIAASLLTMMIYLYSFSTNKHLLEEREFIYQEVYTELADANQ
T1: ssRNA, hairpin with 1x1 G/G internal loops (Homo sapiens); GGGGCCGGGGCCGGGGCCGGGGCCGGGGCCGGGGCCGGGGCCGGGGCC
UniProt P35821, sequence (whole entry, looked up): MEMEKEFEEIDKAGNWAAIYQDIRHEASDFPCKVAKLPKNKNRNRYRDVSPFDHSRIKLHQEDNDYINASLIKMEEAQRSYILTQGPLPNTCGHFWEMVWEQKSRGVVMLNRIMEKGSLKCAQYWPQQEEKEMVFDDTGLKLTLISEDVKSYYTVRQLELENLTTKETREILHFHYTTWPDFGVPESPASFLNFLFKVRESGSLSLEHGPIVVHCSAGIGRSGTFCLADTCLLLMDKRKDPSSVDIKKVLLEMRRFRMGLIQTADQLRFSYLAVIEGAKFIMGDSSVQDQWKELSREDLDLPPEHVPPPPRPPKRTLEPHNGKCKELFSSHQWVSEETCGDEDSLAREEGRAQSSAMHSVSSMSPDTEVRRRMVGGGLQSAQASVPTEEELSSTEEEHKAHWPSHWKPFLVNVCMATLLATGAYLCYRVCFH
UniProt O75762, sequence (whole entry, unmodified, looked up): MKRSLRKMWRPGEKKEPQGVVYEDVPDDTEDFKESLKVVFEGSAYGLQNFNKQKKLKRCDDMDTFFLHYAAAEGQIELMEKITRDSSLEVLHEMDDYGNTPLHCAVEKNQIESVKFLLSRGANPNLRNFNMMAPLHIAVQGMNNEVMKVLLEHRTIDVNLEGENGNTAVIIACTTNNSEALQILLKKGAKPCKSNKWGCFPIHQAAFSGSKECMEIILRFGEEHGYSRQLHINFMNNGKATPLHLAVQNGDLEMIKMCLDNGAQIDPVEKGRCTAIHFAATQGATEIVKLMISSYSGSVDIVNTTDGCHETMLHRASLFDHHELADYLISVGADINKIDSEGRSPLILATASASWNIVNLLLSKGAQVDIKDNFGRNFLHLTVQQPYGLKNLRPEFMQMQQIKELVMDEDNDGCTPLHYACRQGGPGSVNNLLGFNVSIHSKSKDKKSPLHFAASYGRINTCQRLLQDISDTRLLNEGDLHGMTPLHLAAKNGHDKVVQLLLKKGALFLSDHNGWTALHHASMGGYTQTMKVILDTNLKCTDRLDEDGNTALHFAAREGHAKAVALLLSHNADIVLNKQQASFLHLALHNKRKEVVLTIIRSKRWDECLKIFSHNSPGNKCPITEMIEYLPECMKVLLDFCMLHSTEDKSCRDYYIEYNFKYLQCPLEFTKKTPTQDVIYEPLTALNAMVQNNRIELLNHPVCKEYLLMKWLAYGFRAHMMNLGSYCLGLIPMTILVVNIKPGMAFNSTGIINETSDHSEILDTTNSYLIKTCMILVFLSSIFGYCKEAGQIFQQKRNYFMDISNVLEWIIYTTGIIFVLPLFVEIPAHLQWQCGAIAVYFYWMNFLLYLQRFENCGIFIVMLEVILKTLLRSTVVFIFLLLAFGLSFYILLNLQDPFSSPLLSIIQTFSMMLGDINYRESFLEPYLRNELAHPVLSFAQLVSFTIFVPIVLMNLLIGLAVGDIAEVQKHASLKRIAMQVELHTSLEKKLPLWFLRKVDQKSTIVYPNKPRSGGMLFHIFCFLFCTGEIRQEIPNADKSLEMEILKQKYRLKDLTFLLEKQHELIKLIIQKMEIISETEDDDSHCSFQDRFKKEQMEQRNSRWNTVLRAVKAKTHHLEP
UniProt P41143, sequence (whole entry, looked up): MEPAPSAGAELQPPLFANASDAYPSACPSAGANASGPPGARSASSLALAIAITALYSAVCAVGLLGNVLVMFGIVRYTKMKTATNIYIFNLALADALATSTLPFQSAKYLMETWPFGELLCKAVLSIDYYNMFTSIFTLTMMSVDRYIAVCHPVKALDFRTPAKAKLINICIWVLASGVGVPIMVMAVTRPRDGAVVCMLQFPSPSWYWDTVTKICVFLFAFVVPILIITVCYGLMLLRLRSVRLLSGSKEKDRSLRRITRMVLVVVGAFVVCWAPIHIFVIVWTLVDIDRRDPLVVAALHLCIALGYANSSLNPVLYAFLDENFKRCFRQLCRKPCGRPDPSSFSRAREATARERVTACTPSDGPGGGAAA
UniProt P51531, sequence (whole entry, unmodified, looked up): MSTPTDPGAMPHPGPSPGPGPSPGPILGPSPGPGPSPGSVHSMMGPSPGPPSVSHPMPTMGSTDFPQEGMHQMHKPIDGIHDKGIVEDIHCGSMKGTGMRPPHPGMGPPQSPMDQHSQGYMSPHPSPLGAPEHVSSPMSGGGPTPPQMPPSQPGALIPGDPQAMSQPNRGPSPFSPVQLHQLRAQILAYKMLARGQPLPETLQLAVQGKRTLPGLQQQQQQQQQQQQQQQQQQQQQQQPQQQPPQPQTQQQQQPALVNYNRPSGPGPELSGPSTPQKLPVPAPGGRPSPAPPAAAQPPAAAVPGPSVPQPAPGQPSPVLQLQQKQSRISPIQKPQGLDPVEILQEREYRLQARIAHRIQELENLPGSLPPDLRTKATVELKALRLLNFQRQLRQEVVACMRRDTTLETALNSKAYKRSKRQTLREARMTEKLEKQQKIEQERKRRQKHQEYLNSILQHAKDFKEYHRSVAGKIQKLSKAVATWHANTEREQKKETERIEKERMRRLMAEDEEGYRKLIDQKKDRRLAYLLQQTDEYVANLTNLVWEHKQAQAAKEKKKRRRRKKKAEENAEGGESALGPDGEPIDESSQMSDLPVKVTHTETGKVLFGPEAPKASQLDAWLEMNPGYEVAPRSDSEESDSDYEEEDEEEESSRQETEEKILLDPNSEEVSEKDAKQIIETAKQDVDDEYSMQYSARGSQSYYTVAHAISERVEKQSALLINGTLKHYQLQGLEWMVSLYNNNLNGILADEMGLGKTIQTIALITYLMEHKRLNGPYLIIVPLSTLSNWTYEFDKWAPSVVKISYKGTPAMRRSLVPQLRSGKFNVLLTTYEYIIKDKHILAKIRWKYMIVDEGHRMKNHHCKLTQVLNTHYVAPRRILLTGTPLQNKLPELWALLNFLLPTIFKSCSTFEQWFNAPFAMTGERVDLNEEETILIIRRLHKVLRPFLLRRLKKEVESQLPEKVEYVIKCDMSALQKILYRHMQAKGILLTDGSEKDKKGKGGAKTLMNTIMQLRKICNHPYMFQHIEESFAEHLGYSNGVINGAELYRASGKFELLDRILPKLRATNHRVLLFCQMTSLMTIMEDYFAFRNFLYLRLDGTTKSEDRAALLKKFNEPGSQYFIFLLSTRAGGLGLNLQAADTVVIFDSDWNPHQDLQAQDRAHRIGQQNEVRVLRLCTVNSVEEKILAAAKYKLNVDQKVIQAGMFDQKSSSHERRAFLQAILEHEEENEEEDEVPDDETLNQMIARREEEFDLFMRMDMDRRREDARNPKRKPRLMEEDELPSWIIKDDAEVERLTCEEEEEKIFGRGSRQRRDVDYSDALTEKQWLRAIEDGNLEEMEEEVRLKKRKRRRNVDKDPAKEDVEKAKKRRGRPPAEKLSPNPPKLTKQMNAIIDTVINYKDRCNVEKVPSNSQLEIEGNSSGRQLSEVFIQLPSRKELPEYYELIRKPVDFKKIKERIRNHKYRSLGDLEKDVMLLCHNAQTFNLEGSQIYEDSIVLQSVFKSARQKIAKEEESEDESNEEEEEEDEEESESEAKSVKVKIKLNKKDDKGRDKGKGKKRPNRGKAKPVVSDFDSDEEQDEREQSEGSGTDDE
UniProt Q9NQR1, sequence (whole entry, unmodified, looked up): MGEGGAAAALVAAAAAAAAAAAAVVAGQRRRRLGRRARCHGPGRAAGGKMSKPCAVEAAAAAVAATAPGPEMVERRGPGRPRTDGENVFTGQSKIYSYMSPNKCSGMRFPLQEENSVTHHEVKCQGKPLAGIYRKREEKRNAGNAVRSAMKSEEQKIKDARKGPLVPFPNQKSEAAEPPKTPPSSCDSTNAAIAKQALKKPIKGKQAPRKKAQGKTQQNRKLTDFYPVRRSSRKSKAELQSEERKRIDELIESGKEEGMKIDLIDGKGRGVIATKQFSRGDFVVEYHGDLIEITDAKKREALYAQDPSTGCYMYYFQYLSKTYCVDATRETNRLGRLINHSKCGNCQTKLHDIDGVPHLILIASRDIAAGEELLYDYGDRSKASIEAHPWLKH
UniProt P41587, sequence (whole entry, looked up): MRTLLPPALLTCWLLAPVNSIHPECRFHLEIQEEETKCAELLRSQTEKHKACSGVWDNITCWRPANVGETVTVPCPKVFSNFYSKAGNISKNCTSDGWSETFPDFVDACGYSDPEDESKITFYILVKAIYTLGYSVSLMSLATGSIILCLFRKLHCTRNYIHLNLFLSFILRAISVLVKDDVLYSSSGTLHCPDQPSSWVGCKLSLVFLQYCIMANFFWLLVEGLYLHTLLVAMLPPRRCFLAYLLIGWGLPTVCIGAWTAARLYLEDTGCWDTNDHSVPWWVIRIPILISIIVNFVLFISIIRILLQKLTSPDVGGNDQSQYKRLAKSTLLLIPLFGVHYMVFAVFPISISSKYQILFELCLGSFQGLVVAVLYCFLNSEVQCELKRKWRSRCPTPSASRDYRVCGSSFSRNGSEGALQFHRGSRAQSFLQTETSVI

Structure (SMILES) | target | assay | test system | setting | scale | endpoint | value
Clc1ccc(OCc2nn3c(-c4ccccn4)nnc3s2)cc1 | HSP90AA1 N-terminal domain | SPR, two-state model | N-terminal domain | – | – | kon | 389 ± 441 M⁻¹ s⁻¹
CSCC[C@H](NC(=O)[C@H](CCC(N)=O)NC(=O)[C@H](CCCCN)NC(=O)[C@H](CCCNC(=N)N)NC(=O)[C@H](Cc1ccc(O)cc1)NC(=O)[C@H](CCCNC(=N)N)NC(=O)[C@H](CO)NC(=O)[C@H](Cc1ccc(O)cc1)NC(=O)[C@H](CO)NC(=O)[C@H](CC(=O)O)NC(=O)[C@@H](NC(=O)[C@@H](N)Cc1ccccc1)[C@@H](C)O)C(=O)N[C@@H](C)C(=O)N[C@H](C(=O)N[C@@H](CCCCN)C(=O)N[C@@H](CCCCn1cc(C[C@H](NC(=O)CNC(=O)[C@H](CO)NC(=O)[C@H](CCCNC(=N)N)NC(=O)[C@H](CO)NC(=O)[C@H](CC(C)C)NC(=O)[C@H](CC(C)C)NC(=O)CNC(=O)[C@H](C)NC(=O)[C@H](CC(C)C)NC(=O)[C@H](CCCNC(=N)N)NC(=O)[C@H](Cc2c[nH]cn2)NC(=O)[C@@H](NC(=O)[C@@H](N)C(C)C)[C@@H](C)O)C(=O)N[C@H](C(=O)N[C@H](C(=O)N[C@@H](CCCCN)C(=O)N[C@@H](CC(N)=O)C(=O)N[C@@H](CC(N)=O)C(=O)N[C@@H](Cc2ccccc2)C(=O)N[C@H](C(=O)N2CCC[C@H]2C(=O)N[C@H](C(=O)N[C@@H](CC(N)=O)C(=O)N[C@H](C(=O)NCC(=O)N[C@@H](CO)C(=O)N[C@@H](CCCCN)C(=O)N[C@@H](C)C(=O)N[C@@H](Cc2ccccc2)C(N)=O)C(C)C)[C@@H](C)O)C(C)C)C(C)C)C(C)C)nn1)C(=O)N[C@@H](Cc1ccc(O)cc1)C(=O)N[C@@H](CC(C)C)C(=O)N[C@@H](C)C(=O)N[C@@H](C)C(=O)N[C@H](C(=O)N[C@@H](CC(C)C)C(=O)NCC(=O)N[C@@H](CCCCN)C(=O)N[C@@H](CCCNC(=N)N)C(=O)N[C@@H](Cc1ccc(O)cc1)C(=O)N[C@@H](CCCCN)C(=O)N[C@@H](CCC(N)=O)C(=O)N[C@@H](CCCNC(=N)N)C(=O)N[C@H](C(=O)N[C@@H](CCCCN)C(=O)N[C@@H](CC(N)=O)C(=O)N[C@@H](CCCCN)C(N)=O)C(C)C)C(C)C)C(C)C | VIPR2 (Homo sapiens, UniProt P41587) | cAMP accumulation, antagonist | transfected COS-7 cells | first quantifiable antagonism, added: PACAP-38 agonist | – | A2 | 4.47 µM
C#CCCC1(CCNC(=O)CCC)N=N1 | T1, ssRNA, hairpin with 1x1 G/G internal loops (Homo sapiens) | covalent, Chem-CLIP pulldown | – | – | – | binding | no binding
COc1cc(-c2cn(C)c(=O)c3cnccc23)cc(OC)c1CN(C)C | SMARCA2 (Homo sapiens, UniProt P51531) | – | – | – | – | ΔTm | -1 °C
CC(=O)N[C@@H](Cc1ccccc1Cl)C(=O)N[C@@H](CCC(=O)O)C(=O)N[C@@H](C)C(=O)N[C@@H](CC(=O)O)C(=O)COC(=O)c1c(C)cccc1C | CASP1 | enzyme activity, inhibitor | – | – | – | kinact/KI | 3.72e+06 M⁻¹ s⁻¹
OC(O)(Cc1ccc(Cl)cc1)C(F)(F)F | Rhomboid protease AarA | enzyme activity, inhibitor, fluorogenic peptide substrate | – | – | – | IC50 | inactive
CC(=O)N1C[C@H](O)C[C@H]1C(=O)N[C@H](C(=O)N[C@@H](CO)C(=O)N[C@@H](CC(=O)O)C(=O)COC(=O)c1c(C)cccc1C)C(C)(C)C | CASP1 | enzyme activity, inhibitor | – | – | – | kinact/KI | 67000 M⁻¹ s⁻¹
O=C1CC(c2ccccc2)N1S(=O)(=O)C1CCCC1 (centres unmarked) | Rhomboid protease AarA | enzyme activity, inhibitor, fluorogenic peptide substrate | – | – | – | IC50 | inactive
O=C(N1CCCC1)n1cc(-c2ccc(-c3ccccc3)cc2)nn1 | Lysosomal protective protein (Ctsa, Mus musculus, UniProt P16675) | enzyme activity, inhibitor, competitive ABPP-SILAC, item: Ctsa | mouse T-cells | concentration not given, 4 h, treated in situ | reference: DMSO | activity ratio | 1.12
CC(=O)N[C@@H](CC(=O)O)C(=O)N[C@@H](CO)C(=O)N[C@@H](C)C(=O)N[C@@H](CC(=O)O)C(=O)COC(=O)c1c(C)cccc1C | CASP1 | enzyme activity, inhibitor | – | – | – | kinact/KI | 7600 M⁻¹ s⁻¹
Cc1cnc(NC(=O)c2cccc([C@@H]3C[C@H]3NC3CCC3)c2)s1 | KDM1A (Homo sapiens, UniProt O60341) | demethylase activity, inhibitor, Amplex Red | – | 0.2222 µM, added: H3K4me2 peptide | reference: vehicle | remaining activity | 82.3%
Cc1cc(C(=O)Nc2nc3cccc(C)c3n2[C@H]2CCCCN(C(=O)/C=C/CN(C)C)C2)ccn1 | CDC2-like kinase 1 (Trypanosoma brucei brucei, UniProt Q382U0) | ADP-Glo | – | 5 µM | – | kinase activity | -3.35% and -4.02%
COC(=O)c1cc2cc3c(cc2oc1=O)N(CC(=O)NC(Cc1cccc(Cl)c1)C(=O)NCC=CS(=O)(=O)c1ccccc1)CCC3 (centres unmarked) | Procathepsin L (CTSL, Homo sapiens, UniProt P07711) | inhibitor | – | added: Z-Phe-Arg-pNA | – | kinact/Ki | 16000 M⁻¹ s⁻¹
CC(/C=C/C(=O)NO)=C\[C@@H](C)C(=O)c1ccc(N(C)C)cc1 | HDAC8 (Homo sapiens, UniProt Q9BY41) | ITC | Tris-HCl buffer | 283 K | – | TΔS° | 3 kcal/mol
C#CCCCn1cnc(N)c2nc(Sc3ccc(C)cc3C)nc1-2 | HSP90AA1 N-terminal domain | ITC | – | – | – | TΔS | -0.72 ± 5.27 kcal/mol
Cn1c(=O)n(C2CCC(=O)NC2=O)c2ccc(C3CCN(CC(=O)Nc4cccc(CS(=O)(=O)N5CC[C@H](Nc6cccc(-c7sc(C(=O)O)c(OCC(=O)O)c7Cl)c6)CC5(C)C)c4)CC3)cc21 (some centres unmarked) | Tyrosine-protein phosphatase non-receptor type 1 (Mus musculus, UniProt P35821) | degrader, Western blot | B16-F10 | 1 µM, added: DMSO pretreatment | – | remaining protein | 1% and 0%

Structure (SMILES) | target | assay | test system | setting | scale | endpoint | value
N#Cc1ccc(S(=O)(=O)N2C(=O)CC2c2ccccc2)cc1 (centres unmarked) | Rhomboid protease AarA | enzyme activity, inhibitor, fluorogenic peptide substrate | – | – | – | IC50 | inactive
Cc1cnc2nc1Nc1cccc(c1)COC/C=C/COCc1cc(ccc1OCCN1CCOCC1)N2 | EGFR (Homo sapiens, UniProt P00533, A750P/del747-749) | binding | – | 0.1 µM | – | remaining binding | 66%
CCCCCCCCCCCCCCCC(=O)OCC(CSC[C@H](N)C(=O)N[C@@H](CO)C(=O)N[C@@H](CCCCN)C(=O)N[C@@H](CCCCN)C(=O)N[C@@H](CCCCN)C(=O)N[C@@H](CCCCN)C(=O)NCCCCCC(=O)N[C@@H](CCCCN)C(=O)N[C@@H](CC(C)C)C(=O)N[C@H](C(=O)N[C@@H](Cc1ccccc1)C(=O)N[C@@H](Cc1ccccc1)C(=O)N[C@@H](Cc1ccc2ccccc2c1)C(=O)O)C(C)C)OC(=O)CCCCCCCCCCCCCCC (some centres unmarked) | Amyloid-beta precursor protein, fibrillar amyloid-beta (APP, Homo sapiens, UniProt P05067) | TEM | – | 2.0 eq, 28 h, fibril 1, added: APP 20 µM | – | fibril diameter | 25.3 nm
CC(=O)N[C@@H](Cc1c[nH]c2ccccc12)C(=O)N[C@@H](CCCNC(=N)N)C(=O)N[C@@H](CO)C(=O)N[C@@H](CC(=O)O)C(=O)COC(=O)c1c(C)cccc1C | CASP1 | inhibitor | – | recombinant enzyme | – | kobs/[I] | 2.34e+06 M⁻¹ s⁻¹
COc1cc(Nc2nccc(-c3cnn4nc(OC)ccc34)n2)cc(C(F)(F)F)c1 | KIT (Homo sapiens, UniProt P10721) | binding, competition with immobilised ligand | – | 1 µM | – | remaining binding | 67%
CC(=O)[C@]12NC(C)(C)C[C@@]1(C)C(=O)C1=C2c2c(c3c4n2C(C)(C)CC2=C4[C@@]4(CC(C)(C)N[C@@](C)(C4)C2=O)CC3(C)C)C(=O)C(C)(C)N1 (racemic) | OPRD1 (Homo sapiens, UniProt P41143) | cAMP level, agonist, LANCE Ultra cAMP | CHO | 10 µM | – | activation | 2.44%
CC(C)[C@@H]1NC(=O)[C@H](Cc2ccccc2)NC(=O)CSC[C@@H](C(N)=O)NC(=O)[C@H](CCC(=O)O)NC(=O)[C@H](CO)NC(=O)[C@H](Cc2c[nH]c3cccc(Cl)c23)NC(=O)[C@H](C2CCCCC2)NC(=O)[C@H](C(C)C)NC(=O)[C@H](Cc2ccc(O)cc2)NC(=O)[C@H](CC(=O)O)NC(=O)[C@H](Cc2c[nH]c3ccccc23)NC(=O)[C@H](Cc2ccc(N)nc2)NC(=O)[C@H](Cc2c[nH]c3ccc(Cl)cc23)NC(=O)[C@H](CCC(=O)O)NC1=O | Interleukin-1 receptor-like 2 (IL1RL2, Homo sapiens, UniProt Q9HB29) | reporter gene (SEAP), inhibitor, HEK-Blue IL-36R reporter | HEK-Blue IL-36R cells | 0.14 µM, 6 h, added: IL-36γ 100 ng/mL | – | remaining activity | 98.2%
COC(=O)[C@@]1(C)C=C(C(=O)Nc2cccc(C(=O)Nc3ccc(Nc4nccc(-c5cccnc5)n4)c(C)c3)c2)C(=O)CC1 | Mitogen-activated protein kinase 8, docking groove (MAPK8, Homo sapiens, UniProt P45983) | peptide binding, inhibitor, fluorescence polarization | – | 50 µM, added: JIP1 peptide probe | – | normalized fluorescence polarization | 0.833
CC(=O)N1C(=O)C(C)C1c1ccccc1 (centres unmarked) | Rhomboid protease AarA | enzyme activity, inhibitor, fluorogenic peptide substrate | – | – | – | IC50 | inactive
CC(=O)N1[C@H](C(=O)N[C@H](C(=O)N[C@@H](Cc2c[nH]cn2)C(=O)N[C@@H](CC(=O)O)C(=O)COC(=O)c2c(C)cccc2C)C(C)(C)C)C[C@@H]2CCCC[C@@H]21 | CASP1 | enzyme activity, inhibitor | – | – | – | kinact/KI | 6000 M⁻¹ s⁻¹
Cc1ccc(C2CCN(C3Cc4ccccc4CC3O)CC2)cc1 (racemic) | Vesicular acetylcholine transporter (Rattus norvegicus, UniProt Q62666) | – | – | – | reference: Ki sigma1 over Ki VAChT | selectivity ratio | 1.1
O=C(O)C1OC(Oc2cccc(-c3oc4ccccc4c(=O)c3O)c2)C(O)C(O)C1O (centres unmarked) | UGT1A1 (Homo sapiens, UniProt P22309) | glucuronidation | Supersomes | – | – | Vmax | 7430 ± 7800 pmol/min/mg
CCCCOc1ccc(C(=O)OCCN2CC=CCC2)cc1 | CHRM2 (Homo sapiens, UniProt P08172) | – | membranes | 10 µM, 15 h, no carbachol | reference: control | basal binding | 1.04 ± 0.03 fold
O=C1C(Cl)=C(NCCN2CCOCC2)C(=O)c2ncccc21 | KMT5A (Homo sapiens, UniProt Q9NQR1, C311S) | enzyme activity, radiometric filter | – | 8 h, 1 µM enzyme C270S variant | – | Hill coefficient | 2.5
O=C(NC[C@@H](Cc1ccc(F)cc1)N1CCC(O)(C(F)(F)F)CC1)C1(c2ccc(Cl)cc2)CCCC1 | TRPA1 (Homo sapiens, UniProt O75762, M912L) | calcium influx, agonist | – | – | reference: M912L mutant over wild type | EC50 fold change | 3.2
CCCCCC=CC=C1C(=O)C=CC1CC=CCCCC(=O)O (centres unmarked) | Nuclear pore complex protein Nup155 (Homo sapiens, UniProt O75694) | competitive isoTOP-ABPP, item: NUP155 cysteine peptide | proteome, soluble, MDA-MB-231 | 100 µM, added: iodoacetamide probe | reference: DMSO over compound-treated, higher = stronger cysteine blockade | isoTOP-ABPP competition ratio | 1.6
